Measurements from different studies.
Numbers after ± are the reported error.
INPP5D: Phosphatidylinositol 3,4,5-trisphosphate 5-phosphatase 1 (INPP5D, Homo sapiens, UniProt Q92835)
Chain of UniProt Q92835 (whole entry, looked up): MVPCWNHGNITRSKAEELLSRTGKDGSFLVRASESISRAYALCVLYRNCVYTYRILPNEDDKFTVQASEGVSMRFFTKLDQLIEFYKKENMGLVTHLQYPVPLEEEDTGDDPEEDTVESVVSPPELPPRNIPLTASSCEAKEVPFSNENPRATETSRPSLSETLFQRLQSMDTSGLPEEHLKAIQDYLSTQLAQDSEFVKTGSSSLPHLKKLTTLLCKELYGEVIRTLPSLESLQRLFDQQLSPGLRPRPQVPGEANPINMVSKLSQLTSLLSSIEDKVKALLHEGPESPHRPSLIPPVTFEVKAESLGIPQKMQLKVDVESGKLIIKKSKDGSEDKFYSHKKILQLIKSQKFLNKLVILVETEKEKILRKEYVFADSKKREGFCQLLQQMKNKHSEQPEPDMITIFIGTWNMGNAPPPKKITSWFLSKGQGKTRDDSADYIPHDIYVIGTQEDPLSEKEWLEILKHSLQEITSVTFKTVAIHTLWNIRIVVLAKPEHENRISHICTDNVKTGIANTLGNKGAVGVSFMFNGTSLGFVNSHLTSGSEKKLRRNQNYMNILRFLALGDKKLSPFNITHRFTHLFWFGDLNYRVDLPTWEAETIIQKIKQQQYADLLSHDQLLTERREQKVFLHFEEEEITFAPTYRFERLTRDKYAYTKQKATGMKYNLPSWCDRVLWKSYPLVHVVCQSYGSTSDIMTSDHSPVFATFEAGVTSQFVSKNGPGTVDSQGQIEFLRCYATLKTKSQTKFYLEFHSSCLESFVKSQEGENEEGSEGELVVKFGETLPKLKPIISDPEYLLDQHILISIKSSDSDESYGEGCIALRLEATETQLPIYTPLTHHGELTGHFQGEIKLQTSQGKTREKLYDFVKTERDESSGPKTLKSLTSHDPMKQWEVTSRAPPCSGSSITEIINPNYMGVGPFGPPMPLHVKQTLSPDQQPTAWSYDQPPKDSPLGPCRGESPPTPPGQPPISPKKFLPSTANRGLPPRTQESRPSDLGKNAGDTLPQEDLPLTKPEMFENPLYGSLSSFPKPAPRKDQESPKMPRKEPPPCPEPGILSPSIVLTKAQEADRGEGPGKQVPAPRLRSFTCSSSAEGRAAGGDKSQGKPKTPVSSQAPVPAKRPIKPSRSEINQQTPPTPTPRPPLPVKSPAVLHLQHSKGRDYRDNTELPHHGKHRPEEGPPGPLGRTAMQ
2,3-bisphosphoglycerate-independent phosphoglycerate mutase: 2,3-bisphosphoglycerate-independent phosphoglycerate mutase (Helicobacter pylori, UniProt B5Z7X6)
Chain of UniProt P02769 (whole entry, looked up): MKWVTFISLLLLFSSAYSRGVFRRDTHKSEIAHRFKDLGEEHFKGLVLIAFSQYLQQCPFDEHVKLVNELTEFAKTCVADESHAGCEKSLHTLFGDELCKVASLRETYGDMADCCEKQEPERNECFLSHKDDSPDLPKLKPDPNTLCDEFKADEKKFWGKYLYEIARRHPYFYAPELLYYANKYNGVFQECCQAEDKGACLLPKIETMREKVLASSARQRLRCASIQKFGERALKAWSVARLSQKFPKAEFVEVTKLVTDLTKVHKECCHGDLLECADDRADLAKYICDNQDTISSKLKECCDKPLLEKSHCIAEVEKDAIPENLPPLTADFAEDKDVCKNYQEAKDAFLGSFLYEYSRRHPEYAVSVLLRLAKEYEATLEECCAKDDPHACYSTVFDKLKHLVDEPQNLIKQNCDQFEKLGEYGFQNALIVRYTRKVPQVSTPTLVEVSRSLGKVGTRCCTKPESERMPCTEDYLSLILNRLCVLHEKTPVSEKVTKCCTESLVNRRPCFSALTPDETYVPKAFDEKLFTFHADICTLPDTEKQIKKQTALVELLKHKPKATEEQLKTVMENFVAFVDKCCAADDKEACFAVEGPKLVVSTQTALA
Chain of UniProt P49146 (whole entry, looked up): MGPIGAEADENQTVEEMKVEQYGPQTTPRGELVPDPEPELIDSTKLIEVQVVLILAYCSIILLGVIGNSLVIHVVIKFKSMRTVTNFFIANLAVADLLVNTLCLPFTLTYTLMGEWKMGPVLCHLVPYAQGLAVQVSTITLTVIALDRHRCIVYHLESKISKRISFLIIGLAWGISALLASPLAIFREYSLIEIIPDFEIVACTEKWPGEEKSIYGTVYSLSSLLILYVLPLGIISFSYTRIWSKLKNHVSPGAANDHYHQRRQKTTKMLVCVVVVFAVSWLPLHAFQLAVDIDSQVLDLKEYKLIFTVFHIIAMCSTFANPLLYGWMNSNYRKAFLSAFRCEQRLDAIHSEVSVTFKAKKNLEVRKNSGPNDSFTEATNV
Chain of UniProt Q9NVM4 (whole entry, looked up): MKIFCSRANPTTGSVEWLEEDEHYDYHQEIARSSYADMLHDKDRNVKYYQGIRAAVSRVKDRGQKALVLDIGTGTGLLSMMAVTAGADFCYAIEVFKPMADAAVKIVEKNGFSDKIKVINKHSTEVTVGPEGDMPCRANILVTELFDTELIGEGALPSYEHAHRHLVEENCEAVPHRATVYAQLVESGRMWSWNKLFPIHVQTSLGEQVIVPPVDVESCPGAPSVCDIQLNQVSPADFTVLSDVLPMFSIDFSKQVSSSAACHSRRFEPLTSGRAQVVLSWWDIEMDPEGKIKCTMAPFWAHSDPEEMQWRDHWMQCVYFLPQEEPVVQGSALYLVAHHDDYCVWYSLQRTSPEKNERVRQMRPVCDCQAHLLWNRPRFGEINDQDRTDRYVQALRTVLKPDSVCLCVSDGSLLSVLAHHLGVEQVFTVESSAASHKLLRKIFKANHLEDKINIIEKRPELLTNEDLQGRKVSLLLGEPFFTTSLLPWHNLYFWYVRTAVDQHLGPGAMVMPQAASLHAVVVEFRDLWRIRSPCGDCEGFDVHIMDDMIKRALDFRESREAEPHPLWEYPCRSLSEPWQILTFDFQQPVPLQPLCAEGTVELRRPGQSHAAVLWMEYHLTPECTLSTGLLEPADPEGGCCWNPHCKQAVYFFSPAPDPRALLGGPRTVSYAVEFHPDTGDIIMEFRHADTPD
Chain of UniProt P25103 (whole entry, looked up): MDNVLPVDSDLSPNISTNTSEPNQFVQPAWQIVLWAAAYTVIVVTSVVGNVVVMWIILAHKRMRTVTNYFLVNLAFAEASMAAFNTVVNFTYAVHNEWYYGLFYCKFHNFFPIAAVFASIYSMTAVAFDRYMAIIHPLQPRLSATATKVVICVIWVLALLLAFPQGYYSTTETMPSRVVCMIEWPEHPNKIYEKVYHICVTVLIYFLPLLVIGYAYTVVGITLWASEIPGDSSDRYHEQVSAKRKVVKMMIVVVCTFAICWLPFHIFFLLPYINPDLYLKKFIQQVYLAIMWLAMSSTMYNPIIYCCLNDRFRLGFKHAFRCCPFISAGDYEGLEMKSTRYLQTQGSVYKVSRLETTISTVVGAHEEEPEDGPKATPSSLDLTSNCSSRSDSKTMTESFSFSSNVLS

CC(=O)N[C@@H](CCCNC(=N)N)C(=O)N[C@@H](Cc1ccc(O)cc1)C(=O)N[C@@H](CCCNC(=N)NC(=O)NCCCCN)C(=O)N[C@@H](CC(C)C)C(=O)N[C@@H](CCCNC(=N)N)C(=O)N[C@H](Cc1ccc(O)cc1)C(N)=O
Ki (NPY2R (Homo sapiens, UniProt P49146); ligand displacement, radioligand): > 5 µM

Nc1ncnc2c1ncn2[C@@H]1O[C@H](CSCCNC(=O)NCCc2ccccc2)[C@@H](O)[C@H]1O
IC50 (PRMT7 (Homo sapiens, UniProt Q9NVM4); enzyme activity, inhibitor, radiometric): 14 µM

CSc1ccc2c(c1)c(CCN)c(C)n2Cc1ccccc1Cl
AC50 (INPP5D; target engagement; HMC3 expressing HiBiT-INPP5D; 60 min, 37 °C): 89 ± 11 µM

CC(C)[C@@H]1NC(=O)[C@H](CCCNC(=N)N)NC(=O)[C@H](Cc2ccc(O)cc2)NC(=O)[C@H](CO)NC(=O)[C@H](Cc2ccc(O)cc2)N(C)C(=O)[C@H](CC(N)=O)NC(=O)CNC(=O)[C@H](Cc2ccc(O)cc2)N(C)C(=O)[C@H](Cc2ccccc2)N(C)C(=O)[C@H](CC(=O)O)NC(=O)[C@H](Cc2ccc(O)cc2)NC(=O)[C@H](Cc2ccccc2)N(C)C(=O)[C@H](Cc2ccc(O)cc2)N(C)C(=O)[C@H](Cc2ccc(O)cc2)NC(=O)CSC[C@@H](C(N)=O)NC(=O)[C@@H]2CCCN2C1=O
AC50 (2,3-bisphosphoglycerate-independent phosphoglycerate mutase; biochemical): 5.89 µM

CC(C)C[C@H](NC(=O)[C@H](CO)NC(=O)CNC(=O)[C@H](N)CO)C(=O)N[C@@H](CO)C(=O)N[C@H](C(=O)N[C@@H](Cc1ccccc1)C(=O)N[C@@H](Cc1ccccc1)C(=O)N[C@@H](CCCNC(=N)N)C(=O)N[C@@H](CC(C)C)C(=O)N[C@@H](Cc1ccccc1)C(=O)N[C@@H](CC(N)=O)C(=O)N[C@@H](CCCNC(=N)N)C(=O)N[C@@H](CO)C(=O)N[C@@H](Cc1ccccc1)C(=O)N[C@H](C(=O)N[C@@H](CCC(N)=O)C(=O)N[C@@H](C)C(=O)O)[C@@H](C)O)[C@@H](C)O
EC50 (uncharacterized protein (Streptococcus mutans serotype c, UniProt Q8DS94); Streptococcus mutans): 6.4 nM

Cc1cc(O)cc(C)c1C[C@H](N)C(=O)N[C@H](C)C(=O)NCC(=O)N[C@@H](Cc1ccc(F)cc1)C(=O)N1CCC[C@H]1C(=O)N[C@@H](CC(C)C)C(=O)N[C@@H](Cc1c[nH]c2ccccc12)C(=O)NCc1cc(C(F)(F)F)cc(C(F)(F)F)c1
Kb (TACR1 (Homo sapiens, UniProt P25103); cAMP, antagonist): 125 nM

CC(=O)N[C@@H](Cc1c[nH]cn1)C(=O)N[C@@H](CCCNC(=N)N)C(=O)N[C@@H](CCCNC(=N)N)C(=O)N[C@@H](CCCNC(=N)N)C(=O)N[C@@H](CCCNC(=N)N)C(=O)N[C@@H](CCCNC(=N)N)C(=O)N[C@@H](CCCNC(=N)N)C(=O)N[C@@H](CCCNC(=N)N)C(=O)N[C@@H](CCCNC(=N)N)C(=O)N[C@@H](Cc1c[nH]cn1)C(N)=O
Kb (Albumin (ALB, Bos taurus, UniProt P02769); fluorescence quenching; with: site competitor phenylbutazone): 680000 M⁻¹

CSc1ccc2c(c1)c(CCN)c(C)n2Cc1ccc(Cl)cc1
AC50 (INPP5D; target engagement; HMC3 expressing HiBiT-INPP5D; 60 min, 37 °C): 46 µM

CN1C(=O)[C@H](CCC(=O)O)NC(=O)[C@H](Cc2ccc(O)cc2)NC(=O)[C@H](CCCNC(=N)N)NC(=O)[C@@H](Cc2ccc(O)cc2)NC(=O)CSC[C@@H](C(N)=O)NC(=O)[C@H](CCCCN)NC(=O)[C@@H]2CCCN2C(=O)[C@H](CS)NC(=O)[C@H](CCC(=O)O)NC(=O)[C@H](Cc2ccc(O)cc2)N(C)C(=O)[C@H](CCCCN)NC(=O)[C@H](Cc2ccc(O)cc2)NC(=O)[C@@H]1Cc1ccc(O)cc1
AC50 (2,3-bisphosphoglycerate-independent phosphoglycerate mutase; biochemical): 33.1 µM
